# Literature values as cited in several papers.
# Numbers after ± are the reported error.
Structure (SMILES),test,system,setting,measurement,value
C[C@]1(c2nc3c(C(N)=O)cccc3[nH]2)CCCN1,,,,pKa1,9.22
Cc1c2c(nn1C)CSCc1cc(n(C)n1)CSc1cc(c3ccccc3c1)OCCCc1c(C(=O)O)n(C)c3c-2c(Cl)ccc13,,"mouse, plasma","intravenous, 100 mg/kg single, 24 h",plasma concentration,~3 ng/mL
Cc1cc(-c2nccc3c2ccn3CC(=O)Nc2ccc(-c3cnccn3)cn2)ccn1,,rat,,dose with kidney tubular dilatation,60 mg/kg/day
Nc1ccn([C@@H]2CS[C@H](CO)O2)c(=O)n1,,woodchuck,dose not given,oral bioavailability,53%
Cn1cncc1[C@@](N)(c1ccc(Cl)cc1)c1ccc2c(c1)c(-c1cccc(Cl)c1)cc(=O)n2C,,adult patients,,Tmax,180 min
C[C@H]1[C@@H](O)O[C@@H]2O[C@@]3(C)CC[C@H]4[C@H](C)CC[C@@H]1[C@@]24OO3,,rat,"intravenous, 0.02 mmol/kg DHA equivalent",half-life,18 ± 6 min
CN(C)c1ccc2nc3ccc(=[N+](C)C)cc-3sc2c1,,human,,bioavailability,~73%
NC(=O)N1c2ccccc2C=Cc2ccccc21,,mouse,"i.p., 6 Hz seizure test, 32 mA",protective index,1.8
N#C[C@@]1(c2ccc3c(N)ncnn23)O[C@H](CO)[C@@H](O)[C@H]1O,,dog,"intravenous, 2 mg/kg, unadjusted NCATS data",Tmax,4.8 min
Cc1nccn1CC1CCc2c(c3ccccc3n2C)C1=O (stereo not drawn),,rat,"4 mg/kg, without tariquidar",half-life,28.2 ± 3.6 min
[11CH3]n1cc(C2=C(c3ccc(Cl)cc3Cl)C(=O)NC2=O)c2ccccc21,PET,nonhuman primates,,initial brain uptake,1.9 SUV
Nc1nc(=O)n([C@@H]2C=C[C@H](CO)O2)cc1F,,dog,,oral bioavailability,50%
CCCCCCCCCCCCCCCC(=O)N[C@@H](CCC(=O)NCCCC[C@H](NC(=O)[C@H](C)NC(=O)[C@H](C)NC(=O)[C@H](CCC(N)=O)NC(=O)CNC(=O)[C@H](CCC(=O)O)NC(=O)[C@H](CC(C)C)NC(=O)[C@H](Cc1ccc(O)cc1)NC(=O)[C@H](CO)NC(=O)[C@H](CO)NC(=O)[C@@H](NC(=O)[C@H](CC(=O)O)NC(=O)[C@H](CO)NC(=O)[C@@H](NC(=O)[C@H](Cc1ccccc1)NC(=O)[C@@H](NC(=O)CNC(=O)[C@H](CCC(=O)O)NC(=O)[C@H](C)NC(=O)[C@@H](N)Cc1cnc[nH]1)[C@@H](C)O)[C@@H](C)O)C(C)C)C(=O)N[C@@H](CCC(=O)O)C(=O)N[C@@H](Cc1ccccc1)C(=O)N[C@H](C(=O)N[C@@H](C)C(=O)N[C@@H](Cc1c[nH]c2ccccc12)C(=O)N[C@@H](CC(C)C)C(=O)N[C@H](C(=O)N[C@@H](CCCNC(=N)N)C(=O)NCC(=O)N[C@@H](CCCNC(=N)N)C(=O)NCC(=O)O)C(C)C)[C@@H](C)CC)C(=O)O,,overweight or obese adults,3.0 mg,cholelithiasis incidence,1.5%
Cc1cn([C@H]2C=C[C@@H](CO)O2)c(=O)[nH]c1=O,,rat,50 mg/kg,oral bioavailability,102%
Cc1cc(Nc2ccc(C(F)(F)F)c(F)c2)n2ncnc2n1,,10 mM HCl,pH 2,kinetic solubility,10 µM
CC(=O)CC(c1ccccc1)c1c(O)c2ccccc2oc1=O (stereo not drawn),,rat,,plasma clearance,0.139 mL/min/kg
CNC(=O)n1ccc2cc(Oc3ccnc(NC(=O)c4ccc(C5CCN(CCO)CC5)cc4)c3)c(OCCOC)cc21,,human,,renal excretion,~6%
CO[C@H]1/C=C/O[C@@]2(C)Oc3c(C)c(O)c4c(O)c(c(/C=N/N5CCN(C)CC5)c(O)c4c3C2=O)NC(=O)/C(C)=C\C=C\[C@H](C)[C@H](O)[C@@H](C)[C@@H](O)[C@@H](C)[C@H](OC(C)=O)[C@@H]1C,perpetrator,human,"dose not given, with: glyburide as victim drug",victim drug AUC decrease,22%
Nc1ccn([C@@H]2O[C@H](CO)[C@@H](O)C2(F)F)c(=O)n1,,metastatic pancreatic cancer patients,dose not given,sepsis incidence,2%
CN(C)C(=O)c1cc2cnc(Nc3ccc(N4CCNCC4)cn3)nc2n1C1CCCC1,,rat,dose not given,oral bioavailability,37%
COc1cc2c(Oc3ccc4[nH]c(C)cc4c3F)ccnc2cc1OCC1(N)CC1,,human,16 mg single dose,AUC(0-t),1290 ± 384 ng·h/mL
CC(C)(C)CC(C)(C)c1ccc(O)cc1,,human liver,1 µM,glucuronidation rate,7880 pmol/min/mg protein
O=C(c1cccnc1-c1ccncc1)N1CCC(O)(Cc2ccccc2)CC1,,children with Dravet or Lennox-Gastaut syndrome,dose not given,TEAE incidence,80.3%
COCCc1ccc(OCC(O)CNC(C)C)cc1 (stereo not drawn),,human CYP2D6 extensive metabolizers,,hepatic clearance,~50 L/h
CC1(C)CCC2(CC1)N[C@@H](C(=O)N[C@@H]1CC[C@@H](C(N)=O)OC1)[C@H](c1ccnc(Cl)c1F)[C@]21C(=O)Nc2cc(Cl)ccc21,,patients with solid tumours or lymphomas,"dose not given, grade ≥3, first-in-human trials",patients with related thrombocytopenia,19%
C=CC(=O)N1CCC([C@@H]2CCNc3c(C(N)=O)c(-c4ccc(Oc5ccccc5)cc4)nn32)CC1,,human patients,"oral, 160 mg once daily, day 1",AUC(0-8h),1270 ± 579 ng·h/mL
C#C[C@]1(CO)O[C@@H](n2cnc3c(N)nc(F)nc32)C[C@@H]1O,,"human, plasma","30 mg, high-fat meal",median Tmax,75 min
Cn1ncnc1[C@H]1c2n[nH]c(=O)c3cc(F)cc(c23)N[C@@H]1c1ccc(F)cc1,,human,"dose not given, monotherapy",apparent central volume Vct/Ft,162 L
CO[C@@H](C)Cn1c(=O)n(C)c2cnc3ccc(-c4cncc(C(C)(C)O)c4)cc3c21,measured: grade ≥3 fatigue,cancer patients,"dose not given, monotherapy",patients with related adverse event,6.3%
CCN(CC)CCN(CCNCCc1ccc(O)c2[nH]c(=O)sc12)C(=O)CCOCCc1cccc2ccccc12,,human,inhaled,lung deposited fraction,0.4
Nc1cccc2c1C(=O)N(C1CCC(=O)NC1=O)C2=O (stereo not drawn),,relapsed refractory multiple myeloma patients,"dose not given, grade 3-4",pneumonia incidence,8%
CCCC(C)(C)C(=O)O,scoliosis or lordosis,zebrafish embryo,nominal concentration,EC10,663 µM
NC[C@H]1O[C@H](O[C@H]2[C@H](O)[C@@H](O[C@H]3O[C@H](CO)[C@@H](O)[C@H](N)[C@H]3O)[C@H](N)C[C@@H]2N)[C@H](N)C[C@@H]1O,,human,,renal clearance,1.19 mL/min/kg
CC(C)n1c(Nc2cccnc2)nc2cnc(Nc3ccc(N4CCN(C)CC4)cc3)nc21,,human,50 to 150 mg,tolerability,not toxic
Oc1ccc(C(c2ccc(O)cc2)(C(F)(F)F)C(F)(F)F)cc1,,"rat, plasma",dose not given,elimination half-life,540 to 780 min
O=C(Nc1ccc(-c2nc(-c3ccc(Cl)cc3)no2)cc1)C1CC(=O)N(Cc2cccnc2)C1 (stereo not drawn),,aqueous buffer,,kinetic solubility,< 1 µM
CC1=N/C(=C\c2cc(F)c(O)c(F)c2)C(=O)N1C,,,,molar extinction coefficient,30100 M⁻¹ cm⁻¹
CCCC(CCC)C(=O)O,small eyes,zebrafish embryo,nominal concentration,EC10,400 µM
CCO[C@H]1CCN(Cc2c(OC)cc(C)c3[nH]ccc23)[C@H](c2ccc(C(=O)O)cc2)C1,,human plasma,10000 ng/mL,maximum unbound fraction,25%
CCOC(=O)C1=C(C)NC(C)=C(C(=O)OC)C1c1cccc(Cl)c1Cl (stereo not drawn),,,,logD,4.76
COc1c(Cl)cccc1Nc1c(-c2ccncc2OC[C@@H]2COCCO2)[nH]c2c1C(=O)NCC2,,"patients, NSCLC, HER2-mutant, previously treated","dose not given, grade ≥3",treatment-related AEs incidence,38%
O=C(O)CN1CCN(CC(=O)O)CCN(CC(=O)O)CCN(CC(=O)O)CC1,"pH-potentiometry, measured: logK1H",0.15 M NaClO4,25 °C,protonation constant (log),9.12

# Some of these lines once more:
Structure (SMILES),test,system,setting,measurement,value
CC1(C)CCC2(CC1)N[C@@H](C(=O)N[C@@H]1CC[C@@H](C(N)=O)OC1)[C@H](c1ccnc(Cl)c1F)[C@]21C(=O)Nc2cc(Cl)ccc21,,patients with solid tumours or lymphomas,"dose not given, grade ≥3, first-in-human trials",patients with related thrombocytopenia,19%
C=CC(=O)N1CCC([C@@H]2CCNc3c(C(N)=O)c(-c4ccc(Oc5ccccc5)cc4)nn32)CC1,,human patients,"oral, 160 mg once daily, day 1",AUC(0-8h),1270 ± 579 ng·h/mL
C#C[C@]1(CO)O[C@@H](n2cnc3c(N)nc(F)nc32)C[C@@H]1O,,"human, plasma","30 mg, high-fat meal",median Tmax,75 min
